Measurements from different studies.
Parts stem from different laboratories: compare values within a part only. Changes are numbered by the printed parent chain.

Series 1
Target: RNA binding protein fox-1 homolog 2, RRM domain, GST-SBP tag (RBFOX2, Homo sapiens, UniProt O43251-10, residues 100-194)
Method: RNA Bind-n-Seq
Molecule type: RNA
Medium: in vitro
Concentration: 365 nM
Setting: natural RNA segment, single round, ends assumed
Baseline: no-protein control
Direction: higher = stronger binding
Target sequence (chain): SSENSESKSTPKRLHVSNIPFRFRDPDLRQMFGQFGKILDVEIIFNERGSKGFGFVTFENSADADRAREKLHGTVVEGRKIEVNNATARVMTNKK
Oligonucleotide	RBNS enrichment (R)
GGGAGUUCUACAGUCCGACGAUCGGGUUACUCCUCCUCCAAUGGGACUCAAGGACUUGACCUCCAGGAGUAGGCCCCUGGUCAGAAGUGCCAUCUCACCAGUGGUCUUCAUUCUUCCUCAUUCAUUCUUUAUCUGGAAUUCUCGGGUGCCAA	0.393
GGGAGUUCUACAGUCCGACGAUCGGAGAAAGCAGCAGCGUAGCGGGACCGUUUGGGAAAGGCUACUUUGGCUGGGGGUGGCUGGGAAAGGCCCCUCUGGGAAAGAGACAGUUUUACUGAGUCAGAUGGUGGAAUGGAAUUCUCGGGUGCCAA	0.523
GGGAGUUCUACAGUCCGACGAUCAUACACUGAGGUGUAUUUUACAAUUGCUCCUUAAGAUUCUCAGUGGAGAUUAGGAGCAACACUGCACUUCUGAUAGAAAAAUGGCCUUGGAUCACUAAACUAGGUAGAGAUGGAAUUCUCGGGUGCCAA	0.587
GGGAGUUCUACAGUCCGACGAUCUAAGCAGGCAAGGGUCACUGCAGGCAUGAAGCUUGGAUUGCUUCAGAUGGUUUGCCGUAUCGUUUUUCUUCCUUUUCCUUUUCUGGGGACUUGUUUCCAUUCAAUGACAAUGGAAUUCUCGGGUGCCAA	0.944
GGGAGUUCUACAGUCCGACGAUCGUGAGUUUGUCUUUGUUACAUUCCAGUGUUUCUGCCUCUUGGCAUGCUUAAAGCACGGCUUACUUCAUCUGCUCCUUACACACUAAAAUGCUGUUAGUGUGCUCAACUACUGGAAUUCUCGGGUGCCAA	0.496
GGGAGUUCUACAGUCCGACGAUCUACAAUCACCGUGUAAGUUAUGGUCUAAACCUGUCCUUUUGAGAGAGAAAAAGAUACUGUUGAUAAUCCUGUCAGCUCCUUAGGCACUUCGGAGGCUGAGGCAGGAGAAUUGGAAUUCUCGGGUGCCAA	0.414
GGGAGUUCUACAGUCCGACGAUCAAUUCUCAAGUGCACAGAUACUAGCAGUUAUGACAGUAAUACAGCGUCUUCUGUGACCCUCACUACCUGCACUGCUUGCAUCCCUGCUUUAUGCCUGGUGGCACAUUAUUUGGAAUUCUCGGGUGCCAA	1.31
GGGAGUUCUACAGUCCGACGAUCGGGUUUGACCAGGUUAGGACUAUUCUUUCUGUGAAGGAUUGUUUGAUUGUAGUAACUCUAUUGGCAUCUUGUAAAUUGGCUCAUUUCCUACGUGAUGUACAUAGAAUAUUUGGAAUUCUCGGGUGCCAA	0.518
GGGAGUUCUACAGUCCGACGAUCUCCUUCAGUACACAUCCUAUGGCGUGACCCCUCCCAGCCUCAGCCAUUCAGGGAACCGGCAGCGCCCACCUAGCGGAGCCGGCUUGGCCCCUCCUGAAAGGAUGGAAGGAUGGAAUUCUCGGGUGCCAA	0.602
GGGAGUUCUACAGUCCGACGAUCGAAUGAUGGUGUUUAUUGCAAAUGCACAAUCUUUUUCCCAUUGAAAUGUCAUCACACUGGAAAUUGUACUAUAUGUAAAAAAAAAAAAAAGUAUAGUUUUAUAUUUGAAAUGGAAUUCUCGGGUGCCAA	0.908
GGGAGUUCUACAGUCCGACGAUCUAAGCGAAGGGAUUAUUAGCAAGGUAAUGCCUGUGUAUGGUCAUAUAGGCACAAAUGCAGAACACCCAGCACAUUGGAGAGACGACCACUUCCUCCUUUAAAAUGUCCUAUGGAAUUCUCGGGUGCCAA	0.345
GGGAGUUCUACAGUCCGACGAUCUUAUCAAUAAUCUAACCGACAAAGAUCAUAUCCAUGUGUAUGUGGUUAGACAUUUUUAUUUCAUUGACUAACCCAGGACAGUUUCAGUGAUGCAAAUUGUGUGCCCUCUGUGGAAUUCUCGGGUGCCAA	0.492

Series 2
Target: CCNB1, cyclin fold, Cln2 fusion (human)
Method: yeast growth competition, sequencing
Medium: yeast
Setting: strong parent motif
Baseline: not given
Direction: higher = stronger binding
Parent: MASTL docking peptide (human); PMIAKNLMCELDE; partner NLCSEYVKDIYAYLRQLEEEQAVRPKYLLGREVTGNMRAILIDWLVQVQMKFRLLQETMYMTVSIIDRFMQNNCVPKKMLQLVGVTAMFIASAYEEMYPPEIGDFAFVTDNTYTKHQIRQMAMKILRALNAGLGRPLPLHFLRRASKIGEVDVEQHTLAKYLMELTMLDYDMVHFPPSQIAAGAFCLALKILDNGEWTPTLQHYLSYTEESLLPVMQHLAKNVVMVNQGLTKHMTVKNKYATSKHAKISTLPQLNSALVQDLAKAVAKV
Variant	normalised enrichment score
PMIAKFLMCELDE [N6F]	-0.0462
PMIAKNLMCELVE [D12V]	1.07
PMIAINLMCELDE [K5I]	0.579
PMIAKNLDCELDE [M8D]	0.471
PMIAKNLMTELDE [C9T]	1.7
PMIARNLMCELDE [K5R]	2.88
PMVAKNLMCELDE [I3V]	2.01
PMIAKNLMCELKE [D12K]	0.643
PAIAKNLMCELDE [M2A]	2.04
PMIAKQLMCELDE [N6Q]	0.323
PMIAKNLNCELDE [M8N]	0.322
PMNAKNLMCELDE [I3N]	0.144
PMIAKNLMGELDE [C9G]	1.25
PMIAKSLMCELDE [N6S]	0.948
PMIAKNLMNELDE [C9N]	1.82
PMIAKNLMCELFE [D12F]	0.743
PMIAKNMMCELDE [L7M]	-0.0663
PMDAKNLMCELDE [I3D]	-0.00596
PYIAKNLMCELDE [M2Y]	1.69
PMIVKNLMCELDE [A4V]	3.21
PMSAKNLMCELDE [I3S]	-0.18
PMIAKNLMCEYDE [L11Y]	1.6
PMIAKNLCCELDE [M8C]	0.033
PMIAVNLMCELDE [K5V]	0.471
PMIAKNQMCELDE [L7Q]	0.0544

Series 3
Target: ABI1, truncated, D143A, DHFR fusion (Arabidopsis thaliana)
Method: DHFR PCA, deep sequencing
Medium: yeast
Setting: methotrexate growth selection, single substitutions
Together with: (+)-ABA 0.032 µM
Baseline: wild-type fitted maximum
Direction: higher = stronger binding
Parent: PYL1, truncated, DHFR fusion (Arabidopsis thaliana); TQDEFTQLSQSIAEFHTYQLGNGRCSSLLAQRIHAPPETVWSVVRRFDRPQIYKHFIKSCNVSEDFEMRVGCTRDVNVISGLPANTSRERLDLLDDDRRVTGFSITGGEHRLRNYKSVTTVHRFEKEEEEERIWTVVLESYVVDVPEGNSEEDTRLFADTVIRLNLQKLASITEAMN
Variant	relative binding score [%]
G108N	-3.67
E130W	5.67
A35C	5.23
V100C	6.44
S27A	5.22
E64P	47.8
N85A	53.1
T6C	18.7
F157A	1.59
V44A	4.21
S26K	-4.81
C60P	-1.31
I162K	2.4
F103I	-1.36
L93V	35.3
L164K	1.63
Q7K	25.9

Series 4
Target: Prothrombin, mature alpha-thrombin (F2, Homo sapiens, UniProt P00734)
Method: aptamer microarray, sandwich
Molecule type: DNA with 2'F-ANA
Medium: in vitro
Concentration: 200 nM
Setting: whole 15-mer aptamer, many near background
Together with: Cy3 exosite-II aptamer, 400 nM
Direction: higher = stronger binding
Oligonucleotide: GGTTGGTGTGGTTGG
Modification	mean fluorescence intensity [a.u.]
2'F-ANA at 2 4 5 7 8 10 11 12 13	49.7
2'F-ANA at 6 7 8 14	206
2'F-ANA at 6 9 13 14	153
2'F-ANA at 3 4 5 6 7 9 11 12 13 14	62.4
2'F-ANA at 1 2 4 7 10 11 12 13 14 15	47.8
2'F-ANA at 1 2 5 7 8 9 10 11 12 14 15	54.6
2'F-ANA at 2 4 6 13	200
2'F-ANA at 1 3 4 7 10 11	63
2'F-ANA at 1 2 8 9 11 14	54.9
2'F-ANA at 4 9 10 11 13 14	58.9
2'F-ANA at 1 2 4 6 8 9 10 13 14 15	49.8
2'F-ANA at 1 2 5 6 10 11 12 14	60.8
2'F-ANA at 2 3 4 5 7 9 11 12 13 14	162
2'F-ANA at 1 2 3 5 8 11 12 14 15	48.6
2'F-ANA at 2 3 5 6 8 9 13 15	92.5
2'F-ANA at 2 3 9 11 14 15	372
2'F-ANA at 2 3 5 8 9 10	56.9
2'F-ANA at 2 4 7 10 11 12 13 14	64.8
2'F-ANA at 2 4 5 6 7 11 13	214
2'F-ANA at 5 7 9 10 11 13 14 15	44.1
2'F-ANA at 2 4 8 10 12 14 15	72.8

Series 5
Target: Interferon regulatory factor 3, full length, phosphomimetic (IRF3, Homo sapiens, UniProt Q14653, residues 1-427, S386D/S396D/S398D/S402D/T404D/S405D)
UniProt Q14653, sequence (whole entry, unmodified, looked up): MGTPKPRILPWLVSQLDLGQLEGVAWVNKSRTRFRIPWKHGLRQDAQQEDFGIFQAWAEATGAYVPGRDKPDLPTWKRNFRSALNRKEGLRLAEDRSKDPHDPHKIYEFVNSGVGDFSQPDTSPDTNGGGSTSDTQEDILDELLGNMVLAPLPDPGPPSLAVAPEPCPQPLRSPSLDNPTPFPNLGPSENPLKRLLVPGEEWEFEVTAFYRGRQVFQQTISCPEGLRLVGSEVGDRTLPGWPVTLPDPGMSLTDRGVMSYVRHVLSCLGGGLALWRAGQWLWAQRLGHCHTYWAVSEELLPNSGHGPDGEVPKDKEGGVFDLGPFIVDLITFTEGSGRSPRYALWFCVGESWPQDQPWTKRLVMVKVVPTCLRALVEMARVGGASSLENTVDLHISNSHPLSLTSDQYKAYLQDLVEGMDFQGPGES
Method: protein-binding microarray
Molecule type: double-stranded DNA, one strand shown
Medium: in vitro
Concentration: 2540 nM top
Setting: 60-bp whole probe
Together with: salmon DNA 0.4 mg/ml
Baseline: random background probes
Direction: higher = stronger binding
All sequences stand within: GCCTAGCAC … GTCTTGATTCGCTTGACGCTGCTG
Oligonucleotide	fitted relative affinity
TTAGGACTGGGGTATCGTTTAGTGCTA	-0.193 z-score
TTAGAACTGAGTCTCGATTGGTGCTAG	-0.648 z-score
GACGGTTTCGGTCCCGGGACGTGCTAG	6.33 z-score
TAAGGTATCGACTTTCGGTTAGTGCTA	2.14 z-score
GACGGTATCGGACTGGGGATGTGCTAG	1.43 z-score
TTAGATTTCGGGTTTCGGTTAGTGCTA	3.87 z-score
GACGGTTCCGACTATCGGGACGTGCTA	1.92 z-score
TTAGGTTTAGACTATCGGTTAGTGCTA	-0.266 z-score
TTAGGTCTCGGTATCGCTTAGTGCTAG	1.43 z-score
CGCGCTTCTCGGCGGCGAAGGTGCTAG	-0.0911 z-score
CCTTTTATGGTATTTTTTTCGTGCTAG	3.02 z-score
TACGGTATCGGGTATCGGGACGTGCTA	1.73 z-score
TCAATTATTTATTGTAGCACTGTGCTA	0.181 z-score
GACTGTATCCTTTTCCTGACGTGCTAG	7.19 z-score
TTACGTTTCGGGTTTCGGTTAGTGCTA	5.47 z-score
CCTCAGCTCCCTTTCTCTCTGTGCTAG	1.96 z-score
GACGAACTGGGGTTTCGAGAAGTGCTA	0.0998 z-score

Series 6
Target: XBP1, bZIP domain (human)
Method: DHFR protein complementation
Medium: yeast
Setting: single substitutions, most at no-binding floor
Baseline: wild-type JUN-FOS pair
Direction: higher = stronger binding
Parent: JUN, bZIP domain (human); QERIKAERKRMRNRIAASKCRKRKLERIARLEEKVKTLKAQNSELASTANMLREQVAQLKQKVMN; partner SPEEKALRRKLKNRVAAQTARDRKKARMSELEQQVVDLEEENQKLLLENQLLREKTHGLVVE
Variant	binding fitness
I28D	-1.34 natural log
L31F	-1.46 natural log
V56R	-1.47 natural log
A49T	-1.23 natural log
M51A	-0.573 natural log
A29W	-1.22 natural log
S43V	-0.793 natural log
T37Y	-0.773 natural log
Q41V	-0.852 natural log
N42H	-1.33 natural log
L45Y	-1.54 natural log
M51R	-0.628 natural log
R30K	-0.676 natural log
E44A	-0.768 natural log
K34G	-1.44 natural log
E33A	-0.853 natural log

Excerpt of the above (series 4):
Modification	mean fluorescence intensity [a.u.]
2'F-ANA at 1 2 4 7 10 11 12 13 14 15	47.8
2'F-ANA at 1 2 5 7 8 9 10 11 12 14 15	54.6
2'F-ANA at 2 4 6 13	200
2'F-ANA at 1 3 4 7 10 11	63
2'F-ANA at 1 2 8 9 11 14	54.9
2'F-ANA at 4 9 10 11 13 14	58.9
2'F-ANA at 1 2 4 6 8 9 10 13 14 15	49.8
2'F-ANA at 1 2 5 6 10 11 12 14	60.8
2'F-ANA at 2 3 4 5 7 9 11 12 13 14	162
2'F-ANA at 1 2 3 5 8 11 12 14 15	48.6
2'F-ANA at 2 3 5 6 8 9 13 15	92.5
2'F-ANA at 2 3 9 11 14 15	372
2'F-ANA at 2 3 5 8 9 10	56.9
2'F-ANA at 2 4 7 10 11 12 13 14	64.8
2'F-ANA at 2 4 5 6 7 11 13	214
2'F-ANA at 5 7 9 10 11 13 14 15	44.1
2'F-ANA at 2 4 8 10 12 14 15	72.8
